{"data": "Measurements of several laboratories", "note": "Each line is one published result; not all experiments were run side by side.", "chain of UniProt Q9NRH2 (whole entry, looked up)": "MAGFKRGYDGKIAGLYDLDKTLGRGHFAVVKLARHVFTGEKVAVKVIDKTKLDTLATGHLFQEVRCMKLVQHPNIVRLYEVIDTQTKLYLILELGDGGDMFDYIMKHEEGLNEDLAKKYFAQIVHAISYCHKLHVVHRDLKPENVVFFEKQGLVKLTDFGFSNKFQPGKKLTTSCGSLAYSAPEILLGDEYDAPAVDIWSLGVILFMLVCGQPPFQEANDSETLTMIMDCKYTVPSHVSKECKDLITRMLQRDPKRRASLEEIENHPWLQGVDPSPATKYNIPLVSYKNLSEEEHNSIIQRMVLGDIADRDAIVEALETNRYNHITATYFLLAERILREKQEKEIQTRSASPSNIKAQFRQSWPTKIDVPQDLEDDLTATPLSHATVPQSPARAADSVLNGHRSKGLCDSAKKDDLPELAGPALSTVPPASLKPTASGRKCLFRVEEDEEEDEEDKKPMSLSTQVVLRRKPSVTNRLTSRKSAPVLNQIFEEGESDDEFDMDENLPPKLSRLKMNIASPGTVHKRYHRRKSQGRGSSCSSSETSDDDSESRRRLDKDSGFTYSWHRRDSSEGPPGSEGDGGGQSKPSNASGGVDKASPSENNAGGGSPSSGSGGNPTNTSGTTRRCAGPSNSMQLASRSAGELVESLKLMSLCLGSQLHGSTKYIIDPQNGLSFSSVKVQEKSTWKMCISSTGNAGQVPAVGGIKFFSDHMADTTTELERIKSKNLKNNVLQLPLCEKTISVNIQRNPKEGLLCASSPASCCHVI", "chain of UniProt Q9H4B4 (whole entry, looked up)": "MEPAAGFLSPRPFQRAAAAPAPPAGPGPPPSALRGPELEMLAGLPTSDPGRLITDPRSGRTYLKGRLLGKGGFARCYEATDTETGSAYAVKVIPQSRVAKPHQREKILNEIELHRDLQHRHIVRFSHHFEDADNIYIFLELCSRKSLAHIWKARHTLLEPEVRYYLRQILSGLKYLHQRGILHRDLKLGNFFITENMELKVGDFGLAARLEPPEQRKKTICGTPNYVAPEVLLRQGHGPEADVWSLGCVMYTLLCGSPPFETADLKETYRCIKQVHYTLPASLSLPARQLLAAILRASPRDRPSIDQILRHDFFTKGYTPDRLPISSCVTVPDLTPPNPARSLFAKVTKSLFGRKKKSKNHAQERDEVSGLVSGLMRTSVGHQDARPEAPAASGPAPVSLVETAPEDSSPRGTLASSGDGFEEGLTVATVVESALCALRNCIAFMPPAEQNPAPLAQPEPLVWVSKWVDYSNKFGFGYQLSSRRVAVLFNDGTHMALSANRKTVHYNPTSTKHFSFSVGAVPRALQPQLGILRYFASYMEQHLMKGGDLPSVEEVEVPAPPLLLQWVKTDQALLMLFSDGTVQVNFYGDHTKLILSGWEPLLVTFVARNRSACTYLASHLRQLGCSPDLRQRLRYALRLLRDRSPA", "chain of UniProt Q9UM73 (whole entry, unmodified, looked up)": "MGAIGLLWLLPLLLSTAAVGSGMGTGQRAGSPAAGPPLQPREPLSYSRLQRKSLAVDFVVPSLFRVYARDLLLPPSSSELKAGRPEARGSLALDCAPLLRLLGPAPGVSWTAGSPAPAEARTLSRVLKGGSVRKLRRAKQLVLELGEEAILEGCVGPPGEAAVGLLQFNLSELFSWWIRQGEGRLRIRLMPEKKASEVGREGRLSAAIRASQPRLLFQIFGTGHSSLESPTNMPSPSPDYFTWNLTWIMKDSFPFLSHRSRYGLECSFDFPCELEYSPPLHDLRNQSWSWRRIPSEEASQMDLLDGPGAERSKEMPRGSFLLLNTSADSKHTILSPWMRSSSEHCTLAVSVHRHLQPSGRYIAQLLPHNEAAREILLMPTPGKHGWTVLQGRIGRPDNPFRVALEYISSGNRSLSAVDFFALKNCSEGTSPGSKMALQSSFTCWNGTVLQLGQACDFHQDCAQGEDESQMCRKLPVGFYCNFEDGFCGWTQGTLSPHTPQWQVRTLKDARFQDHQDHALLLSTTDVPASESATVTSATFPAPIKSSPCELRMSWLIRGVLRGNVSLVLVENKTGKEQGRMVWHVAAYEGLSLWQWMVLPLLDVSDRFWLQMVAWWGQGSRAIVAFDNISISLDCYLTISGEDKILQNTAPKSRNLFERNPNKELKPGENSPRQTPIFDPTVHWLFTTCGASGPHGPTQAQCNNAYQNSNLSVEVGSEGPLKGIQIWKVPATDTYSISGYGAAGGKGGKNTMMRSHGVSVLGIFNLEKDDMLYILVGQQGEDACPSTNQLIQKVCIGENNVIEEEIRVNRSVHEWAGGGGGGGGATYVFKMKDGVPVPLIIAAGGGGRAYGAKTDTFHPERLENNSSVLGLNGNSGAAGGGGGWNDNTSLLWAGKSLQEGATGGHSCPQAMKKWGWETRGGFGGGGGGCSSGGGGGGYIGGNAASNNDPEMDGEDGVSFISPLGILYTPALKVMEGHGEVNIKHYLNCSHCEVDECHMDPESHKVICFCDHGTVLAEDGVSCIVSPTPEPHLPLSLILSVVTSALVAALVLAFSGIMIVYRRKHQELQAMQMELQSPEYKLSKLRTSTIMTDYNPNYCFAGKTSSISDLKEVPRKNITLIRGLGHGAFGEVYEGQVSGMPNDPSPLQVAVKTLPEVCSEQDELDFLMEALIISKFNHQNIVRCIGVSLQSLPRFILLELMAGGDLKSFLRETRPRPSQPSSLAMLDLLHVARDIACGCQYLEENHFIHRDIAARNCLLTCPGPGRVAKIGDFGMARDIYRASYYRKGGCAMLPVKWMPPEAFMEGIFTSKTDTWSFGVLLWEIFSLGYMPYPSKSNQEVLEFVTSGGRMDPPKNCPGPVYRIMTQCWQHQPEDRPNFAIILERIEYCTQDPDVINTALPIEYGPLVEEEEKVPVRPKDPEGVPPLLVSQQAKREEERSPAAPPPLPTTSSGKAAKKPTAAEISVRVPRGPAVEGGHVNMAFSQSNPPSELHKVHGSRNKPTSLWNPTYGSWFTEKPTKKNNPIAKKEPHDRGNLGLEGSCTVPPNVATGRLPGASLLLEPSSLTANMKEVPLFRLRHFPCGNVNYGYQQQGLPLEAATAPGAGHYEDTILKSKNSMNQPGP", "chain of UniProt Q9P1W9 (whole entry, looked up)": "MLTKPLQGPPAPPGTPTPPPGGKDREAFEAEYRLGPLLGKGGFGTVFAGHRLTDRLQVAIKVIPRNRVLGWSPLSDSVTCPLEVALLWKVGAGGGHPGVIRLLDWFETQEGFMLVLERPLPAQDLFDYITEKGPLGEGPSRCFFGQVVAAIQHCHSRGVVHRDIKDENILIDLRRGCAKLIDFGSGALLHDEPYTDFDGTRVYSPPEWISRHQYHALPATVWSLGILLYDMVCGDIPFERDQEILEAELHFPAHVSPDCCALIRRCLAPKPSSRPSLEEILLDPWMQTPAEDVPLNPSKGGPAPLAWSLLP", "chain of UniProt Q9UKE5 (whole entry, looked up)": "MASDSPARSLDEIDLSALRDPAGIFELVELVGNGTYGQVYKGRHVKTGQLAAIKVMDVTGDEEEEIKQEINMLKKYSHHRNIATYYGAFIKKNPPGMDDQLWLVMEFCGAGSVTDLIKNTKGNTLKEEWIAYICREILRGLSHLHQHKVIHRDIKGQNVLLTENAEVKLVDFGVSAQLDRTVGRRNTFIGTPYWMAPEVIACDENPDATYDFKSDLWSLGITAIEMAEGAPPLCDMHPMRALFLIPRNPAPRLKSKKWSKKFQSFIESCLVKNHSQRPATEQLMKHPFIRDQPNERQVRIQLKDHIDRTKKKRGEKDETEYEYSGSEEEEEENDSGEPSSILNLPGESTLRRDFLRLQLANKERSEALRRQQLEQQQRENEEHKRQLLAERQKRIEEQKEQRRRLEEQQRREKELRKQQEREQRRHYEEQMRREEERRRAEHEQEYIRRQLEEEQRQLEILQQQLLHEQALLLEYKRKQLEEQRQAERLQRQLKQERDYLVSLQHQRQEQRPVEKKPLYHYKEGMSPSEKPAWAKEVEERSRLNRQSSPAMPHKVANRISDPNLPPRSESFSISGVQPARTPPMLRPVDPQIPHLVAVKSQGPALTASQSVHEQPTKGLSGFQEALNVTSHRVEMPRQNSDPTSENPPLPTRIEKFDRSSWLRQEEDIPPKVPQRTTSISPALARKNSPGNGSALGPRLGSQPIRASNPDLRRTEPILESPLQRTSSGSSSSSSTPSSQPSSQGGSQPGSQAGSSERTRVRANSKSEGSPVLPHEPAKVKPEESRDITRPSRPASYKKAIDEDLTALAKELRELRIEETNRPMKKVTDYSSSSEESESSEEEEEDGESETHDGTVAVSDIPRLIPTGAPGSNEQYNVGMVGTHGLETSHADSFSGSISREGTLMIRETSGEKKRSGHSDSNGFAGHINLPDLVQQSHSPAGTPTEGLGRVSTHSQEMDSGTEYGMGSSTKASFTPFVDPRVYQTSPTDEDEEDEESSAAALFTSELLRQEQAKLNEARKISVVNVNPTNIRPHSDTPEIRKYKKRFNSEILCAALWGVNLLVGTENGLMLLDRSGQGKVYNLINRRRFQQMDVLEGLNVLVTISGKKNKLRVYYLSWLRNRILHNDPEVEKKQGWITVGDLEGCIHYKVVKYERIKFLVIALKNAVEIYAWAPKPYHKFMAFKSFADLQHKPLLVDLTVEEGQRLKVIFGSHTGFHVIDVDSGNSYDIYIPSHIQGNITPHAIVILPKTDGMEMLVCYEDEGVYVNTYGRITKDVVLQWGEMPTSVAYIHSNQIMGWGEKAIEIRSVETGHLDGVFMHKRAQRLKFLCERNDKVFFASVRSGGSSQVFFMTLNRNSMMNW"}
{"Compound": "CNc1ncc2c(/C=C/C(=O)N3CCC(OC)CC3)nn(Cc3cccc(C(F)(F)F)c3)c2n1", "tested on": "PIM2 (Homo sapiens, UniProt Q9P1W9)", "test": "enzyme activity, inhibitor, radiometric", "setting": "1 µM", "endpoint": "remaining activity", "value": "102%"}
{"Compound": "CC(=NNC(N)=S)c1ccc(Nc2nnc(-c3ccc(Cl)cc3)c3ccccc23)cc1", "tested on": "MCF7", "test": "cell growth or viability, MTT", "setting": "0.312 µM", "endpoint": "cell death", "value": "93.2%"}
{"Compound": "CCCN(O)N=Nc1ccc(S(=O)(=O)Nc2nccs2)cc1", "test": "ABTS scavenging", "setting": "20 µg/mL", "endpoint": "inhibition", "value": "23.7%"}
{"Compound": "C1=C/COCc2cc(ccc2OCCN2CCCC2)Nc2nccc(n2)-c2cccc(c2)COC/1", "tested on": "ALK (Homo sapiens, UniProt Q9UM73, L1196M)", "test": "binding", "setting": "0.1 µM", "endpoint": "remaining binding", "value": "97%"}
{"Compound": "O=C(Nc1ccc(Oc2nnc(-c3ccc(Cl)cc3)c3ccccc23)cc1)c1cccc([N+](=O)[O-])c1", "tested on": "MCF7", "test": "cell growth or viability, MTT", "setting": "0.312 µM, 24 h", "endpoint": "viability", "value": "17%"}
{"Compound": "CCCCC(=O)Nc1ccc(-c2ccc3ncn(CCC)c(=O)c3c2)cn1", "tested on": "SNRK (Homo sapiens, UniProt Q9NRH2)", "test": "binding, competition with immobilised ligand", "setting": "0.5 µM", "endpoint": "remaining binding", "value": "100%"}
{"Compound": "Nc1ccn([C@@H]2O[C@H](CO)[C@@H](O)C2(F)F)c(=O)n1", "tested on": "MDA-MB-231", "test": "cell growth or viability, MTT", "setting": "0.625 µg/mL, 48 h", "endpoint": "viability", "value": "73.9%"}
{"Compound": "O=c1nc(N2CCN(CC3CCCCC3)CC2)sc2c([N+](=O)[O-])cc(C(F)(F)F)cc12", "system": "CD-1 mouse, lung", "setting": "intravenous, 10 mg/kg, 8 h", "endpoint": "concentration", "value": "534 ng/mL"}
{"Compound": "Cc1cc(NS(=O)(=O)c2ccc(N=NN(C)O)cc2)no1", "test": "ABTS scavenging", "setting": "240 µg/mL", "endpoint": "inhibition", "value": "49.8%"}
{"Compound": "COc1cc(-c2cncc3c2CN(C)Cc2cc(N4CCNCC4)ccc2-3)cc(OC)c1OC", "tested on": "STK39 (Homo sapiens, UniProt Q9UEW8)", "test": "enzyme activity, inhibitor", "setting": "1 µM", "endpoint": "remaining activity", "value": "105%"}
{"Compound": "Cc1cc([C@@H](C)Nc2ccccc2C(=O)O)c2nc(N3CCC(F)(F)CC3)c(C#N)c(=O)n2c1", "tested on": "PLK3 (Homo sapiens, UniProt Q9H4B4)", "test": "binding, competition with immobilised ligand", "setting": "1 µM", "endpoint": "remaining binding", "value": "95%"}
{"Compound": "Fc1ccc(/C=N/N=C/c2ccc(F)cc2F)c(F)c1", "test": "DPPH scavenging", "endpoint": "IC50", "value": "> 3000 µM"}
{"Compound": "O=C(C=Cc1ccccc1)Nc1ccc(Oc2nnc(-c3ccc(Cl)cc3)c3ccccc23)cc1", "tested on": "MCF7", "test": "cell growth or viability, MTT", "setting": "5 µM, 24 h", "endpoint": "viability", "value": "8.37%"}
{"Compound": "CCc1c(C)c2ccc(OCC(=O)NN=Cc3ccc([N+](=O)[O-])cc3)cc2oc1=O", "tested on": "PC-3", "test": "cell growth or viability, MTT", "setting": "125 µg/mL", "endpoint": "viability", "value": "10.4%"}
{"Compound": "CN(Cc1ccc(C(C)(C)C)cc1)Cc1cccc2ccccc12", "tested on": "Trichophyton rubrum", "test": "microbial killing, broth dilution", "system": "ATCC28188", "setting": "6 days", "endpoint": "MFC", "value": "250 µg/mL"}
{"Compound": "C=CC(=O)N1CCC(COCC(=O)N2CCN(c3nc(-c4cnc(N)nc4C(F)F)nc(N4CCOC[C@@H]4C)n3)CC2)CC1", "tested on": "TNIK (Homo sapiens, UniProt Q9UKE5)", "test": "binding, competition with immobilised ligand", "setting": "1 µM", "endpoint": "remaining binding", "value": "92%"}
{"Compound": "CN(O)N=Nc1ccc(S(=O)(=O)Nc2nccs2)cc1", "test": "ABTS scavenging", "setting": "120 µg/mL", "endpoint": "inhibition", "value": "74.8%"}
{"Compound": "CC(=NNC(=O)c1cccnc1)c1ccc(Nc2nnc(-c3ccc(Cl)cc3)c3ccccc23)cc1", "tested on": "MCF7", "test": "cell growth or viability, MTT", "setting": "0.312 µM", "endpoint": "cell death", "value": "0%"}
{"Compound": "Clc1ccccc1/C=N/N=C/c1ccccc1Cl", "test": "DPPH scavenging", "endpoint": "IC50", "value": "2020 µM"}
{"Compound": "CN(Cc1ccc(C2(C(F)(F)F)CC2)cc1)Cc1cccc2ccccc12", "tested on": "Trichophyton rubrum", "test": "microbial growth, disc diffusion", "system": "ATCC28188", "setting": "0.004 µg/mL, 6 days", "endpoint": "inhibition zone", "value": "22.8 mm"}
{"Compound": "Cc1noc(NS(=O)(=O)c2ccc(N=NN(O)c3ccccc3)cc2)c1C", "test": "ABTS scavenging", "setting": "60 µg/mL", "endpoint": "inhibition", "value": "44.4%"}
{"Compound": "O=C1CC[C@H](N2Cc3cc(N4CCN(CC5CCN(c6ccc([C@@H]7c8ccc(O)cc8CC[C@@H]7c7ccccc7)cc6)CC5)CC4)ccc3C2=O)C(=O)N1", "system": "female Sprague-Dawley rat, plasma", "setting": "intravenous, 5 mg/kg, fed", "endpoint": "half-life", "value": "5.36 h"}
{"Compound": "CCN(O)N=Nc1ccc(S(=O)(=O)Nc2onc(C)c2C)cc1", "test": "ABTS scavenging", "setting": "180 µg/mL", "endpoint": "inhibition", "value": "45.2%"}
{"Compound": "COc1cc(C#CC(=O)c2ccccc2)ccc1O", "tested on": "Pseudomonas aeruginosa", "test": "microbial growth, absorbance", "setting": "100 µM, 24 h", "endpoint": "activity vs control", "value": "91%"}
{"Compound": "O=C(Nc1ccccc1)Nc1ccc(Oc2nnc(-c3ccc(Cl)cc3)c3ccccc23)cc1", "tested on": "MCF7", "test": "cell growth or viability, MTT", "setting": "0.156 µM", "endpoint": "cell death", "value": "57.1%"}
{"Compound": "Cc1cccc(N(O)N=Nc2ccc(S(=O)(=O)Nc3onc(C)c3C)cc2)c1", "test": "ABTS scavenging", "setting": "120 µg/mL", "endpoint": "inhibition", "value": "39.5%"}
{"Compound": "CC(=NNC(=O)c1ccncc1)c1ccc(Nc2nnc(-c3ccc(Cl)cc3)c3ccccc23)cc1", "tested on": "MCF7", "test": "cell growth or viability, MTT", "setting": "78 nM", "endpoint": "cell death", "value": "16.9%"}
{"Compound": "COc1cccc(-c2n[nH]c(SCc3ccccn3)n2)c1OC", "system": "female Sprague-Dawley rat, plasma", "setting": "oral, 100 mg/kg, 2 h, single dose", "endpoint": "concentration", "value": "34400 ng/mL"}
{"Compound": "CCCN(O)N=Nc1ccc(S(=O)(=O)Nc2cc(C)on2)cc1", "test": "ABTS scavenging", "setting": "20 µg/mL", "endpoint": "inhibition", "value": "7.5%"}
{"Compound": "CC(=O)Nc1ccc(Oc2nnc(-c3ccc(Cl)cc3)c3ccccc23)cc1", "tested on": "MCF7", "test": "cell growth or viability, MTT", "setting": "0.156 µM", "endpoint": "cell death", "value": "72.7%"}
{"Compound": "COc1ccc(C(=O)C#Cc2ccc(F)c(F)c2)cc1", "tested on": "Pseudomonas aeruginosa", "test": "microbial growth, absorbance", "setting": "10 µM, 24 h", "endpoint": "activity vs control", "value": "99%"}
{"note": "For quick reference, copied from above:"}
{"Compound": "CC(=NNC(=O)c1cccnc1)c1ccc(Nc2nnc(-c3ccc(Cl)cc3)c3ccccc23)cc1", "tested on": "MCF7", "test": "cell growth or viability, MTT", "setting": "0.312 µM", "endpoint": "cell death", "value": "0%"}
{"Compound": "C1=C/COCc2cc(ccc2OCCN2CCCC2)Nc2nccc(n2)-c2cccc(c2)COC/1", "tested on": "ALK (Homo sapiens, UniProt Q9UM73, L1196M)", "test": "binding", "setting": "0.1 µM", "endpoint": "remaining binding", "value": "97%"}
{"Compound": "CC(=NNC(=O)c1ccncc1)c1ccc(Nc2nnc(-c3ccc(Cl)cc3)c3ccccc23)cc1", "tested on": "MCF7", "test": "cell growth or viability, MTT", "setting": "78 nM", "endpoint": "cell death", "value": "16.9%"}
{"Compound": "COc1cc(C#CC(=O)c2ccccc2)ccc1O", "tested on": "Pseudomonas aeruginosa", "test": "microbial growth, absorbance", "setting": "100 µM, 24 h", "endpoint": "activity vs control", "value": "91%"}
{"Compound": "O=C(Nc1ccc(Oc2nnc(-c3ccc(Cl)cc3)c3ccccc23)cc1)c1cccc([N+](=O)[O-])c1", "tested on": "MCF7", "test": "cell growth or viability, MTT", "setting": "0.312 µM, 24 h", "endpoint": "viability", "value": "17%"}
